# Experimental data gathered from unrelated publications.
# Lines come from different studies, so protocols differ. ± gives the spread as reported.
# Aryl hydrocarbon receptor: Aryl hydrocarbon receptor (Danio rerio, UniProt Q9YGV3)
# PFF0160c E182D: Dihydroorotate dehydrogenase (quinone), mitochondrial (PFF0160c, Plasmodium falciparum, UniProt Q08210, E182D)
# ACHE: Acetylcholinesterase (ACHE, Homo sapiens, UniProt P22303)
# Chain of UniProt P22303 (whole entry, looked up): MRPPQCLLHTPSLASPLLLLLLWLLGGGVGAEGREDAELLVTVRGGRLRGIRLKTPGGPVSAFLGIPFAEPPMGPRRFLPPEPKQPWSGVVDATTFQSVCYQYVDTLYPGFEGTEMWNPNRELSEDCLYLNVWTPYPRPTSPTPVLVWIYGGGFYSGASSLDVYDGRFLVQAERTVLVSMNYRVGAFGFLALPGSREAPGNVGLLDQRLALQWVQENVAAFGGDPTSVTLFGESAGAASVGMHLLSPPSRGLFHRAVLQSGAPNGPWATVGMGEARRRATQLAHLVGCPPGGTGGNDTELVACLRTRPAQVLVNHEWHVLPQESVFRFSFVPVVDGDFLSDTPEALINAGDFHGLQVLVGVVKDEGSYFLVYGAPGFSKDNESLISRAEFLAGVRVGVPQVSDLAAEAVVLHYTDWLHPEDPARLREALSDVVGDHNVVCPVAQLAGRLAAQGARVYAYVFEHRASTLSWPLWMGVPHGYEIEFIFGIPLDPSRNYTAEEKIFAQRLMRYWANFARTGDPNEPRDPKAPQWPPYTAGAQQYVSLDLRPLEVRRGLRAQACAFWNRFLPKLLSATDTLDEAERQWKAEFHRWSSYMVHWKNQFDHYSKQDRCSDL
# Chain of UniProt P47211 (whole entry, looked up): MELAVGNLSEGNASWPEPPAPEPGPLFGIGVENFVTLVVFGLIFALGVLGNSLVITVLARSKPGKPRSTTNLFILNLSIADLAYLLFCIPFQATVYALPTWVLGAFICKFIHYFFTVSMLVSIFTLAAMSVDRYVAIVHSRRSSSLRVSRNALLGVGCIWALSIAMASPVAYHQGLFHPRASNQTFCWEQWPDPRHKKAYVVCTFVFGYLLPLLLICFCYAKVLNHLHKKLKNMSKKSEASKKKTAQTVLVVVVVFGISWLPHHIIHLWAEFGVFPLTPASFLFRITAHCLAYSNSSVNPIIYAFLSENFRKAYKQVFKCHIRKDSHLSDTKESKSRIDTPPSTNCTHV
# Chain of UniProt Q9GZZ6 (whole entry, looked up): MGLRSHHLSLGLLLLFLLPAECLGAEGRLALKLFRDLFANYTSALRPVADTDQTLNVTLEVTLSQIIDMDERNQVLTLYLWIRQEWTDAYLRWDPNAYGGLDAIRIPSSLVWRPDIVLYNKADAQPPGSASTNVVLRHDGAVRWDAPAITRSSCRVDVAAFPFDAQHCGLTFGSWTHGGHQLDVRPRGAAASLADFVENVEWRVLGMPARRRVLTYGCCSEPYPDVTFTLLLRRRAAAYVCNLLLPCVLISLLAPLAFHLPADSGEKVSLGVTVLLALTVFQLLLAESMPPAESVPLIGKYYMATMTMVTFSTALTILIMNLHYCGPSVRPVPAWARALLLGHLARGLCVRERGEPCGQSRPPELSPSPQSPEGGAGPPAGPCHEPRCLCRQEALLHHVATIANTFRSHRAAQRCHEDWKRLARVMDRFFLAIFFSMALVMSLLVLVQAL
# Chain of UniProt Q13554 (whole entry, looked up): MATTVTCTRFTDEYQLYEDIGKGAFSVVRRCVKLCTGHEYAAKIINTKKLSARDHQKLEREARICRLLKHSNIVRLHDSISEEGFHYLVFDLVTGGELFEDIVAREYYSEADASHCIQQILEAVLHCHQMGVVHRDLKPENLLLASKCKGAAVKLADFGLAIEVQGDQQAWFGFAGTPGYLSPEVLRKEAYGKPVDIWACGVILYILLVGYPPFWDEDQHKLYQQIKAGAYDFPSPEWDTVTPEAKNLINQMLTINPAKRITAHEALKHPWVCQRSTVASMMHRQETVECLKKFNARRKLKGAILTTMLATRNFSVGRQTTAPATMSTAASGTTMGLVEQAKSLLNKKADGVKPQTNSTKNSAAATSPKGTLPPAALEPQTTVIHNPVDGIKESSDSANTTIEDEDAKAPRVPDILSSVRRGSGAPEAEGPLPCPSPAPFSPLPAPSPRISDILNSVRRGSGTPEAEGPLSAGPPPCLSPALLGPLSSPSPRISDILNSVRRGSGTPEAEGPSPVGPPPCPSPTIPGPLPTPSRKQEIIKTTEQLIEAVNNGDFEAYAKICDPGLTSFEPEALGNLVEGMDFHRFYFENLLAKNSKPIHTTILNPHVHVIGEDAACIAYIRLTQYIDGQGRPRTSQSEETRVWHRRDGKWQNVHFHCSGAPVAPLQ
# Chain of UniProt P41252 (whole entry, looked up): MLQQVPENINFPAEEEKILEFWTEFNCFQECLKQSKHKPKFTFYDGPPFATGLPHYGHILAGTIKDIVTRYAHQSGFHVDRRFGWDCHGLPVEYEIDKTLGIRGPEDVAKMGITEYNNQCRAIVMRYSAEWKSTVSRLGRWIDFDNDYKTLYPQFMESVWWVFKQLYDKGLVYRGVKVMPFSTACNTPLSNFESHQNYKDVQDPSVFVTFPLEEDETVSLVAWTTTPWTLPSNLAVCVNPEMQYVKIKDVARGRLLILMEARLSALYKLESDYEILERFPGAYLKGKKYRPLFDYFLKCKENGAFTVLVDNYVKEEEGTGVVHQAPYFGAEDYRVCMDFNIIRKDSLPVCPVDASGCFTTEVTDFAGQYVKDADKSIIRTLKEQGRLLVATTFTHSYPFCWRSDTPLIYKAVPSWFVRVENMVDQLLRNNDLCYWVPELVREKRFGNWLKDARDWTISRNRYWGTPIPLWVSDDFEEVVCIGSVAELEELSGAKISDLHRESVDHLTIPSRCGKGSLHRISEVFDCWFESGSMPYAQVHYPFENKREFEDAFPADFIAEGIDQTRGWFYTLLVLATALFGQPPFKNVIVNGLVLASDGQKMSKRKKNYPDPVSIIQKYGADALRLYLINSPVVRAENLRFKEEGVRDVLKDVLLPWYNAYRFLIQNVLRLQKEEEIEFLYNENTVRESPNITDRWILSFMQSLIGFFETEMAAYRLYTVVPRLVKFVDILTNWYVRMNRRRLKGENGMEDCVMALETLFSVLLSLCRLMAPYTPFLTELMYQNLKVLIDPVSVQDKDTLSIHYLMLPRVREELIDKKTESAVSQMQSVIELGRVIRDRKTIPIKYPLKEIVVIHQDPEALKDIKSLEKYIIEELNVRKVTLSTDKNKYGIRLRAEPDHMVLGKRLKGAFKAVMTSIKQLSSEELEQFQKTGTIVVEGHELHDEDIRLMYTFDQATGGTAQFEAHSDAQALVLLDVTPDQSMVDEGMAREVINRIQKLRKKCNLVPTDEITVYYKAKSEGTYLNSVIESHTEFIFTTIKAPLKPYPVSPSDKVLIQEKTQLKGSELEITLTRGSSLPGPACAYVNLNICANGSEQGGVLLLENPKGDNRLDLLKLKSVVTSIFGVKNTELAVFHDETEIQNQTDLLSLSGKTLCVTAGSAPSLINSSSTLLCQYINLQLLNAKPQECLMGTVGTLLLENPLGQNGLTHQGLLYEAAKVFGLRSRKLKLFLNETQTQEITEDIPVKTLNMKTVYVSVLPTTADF
# Chain of UniProt P07711 (whole entry, looked up): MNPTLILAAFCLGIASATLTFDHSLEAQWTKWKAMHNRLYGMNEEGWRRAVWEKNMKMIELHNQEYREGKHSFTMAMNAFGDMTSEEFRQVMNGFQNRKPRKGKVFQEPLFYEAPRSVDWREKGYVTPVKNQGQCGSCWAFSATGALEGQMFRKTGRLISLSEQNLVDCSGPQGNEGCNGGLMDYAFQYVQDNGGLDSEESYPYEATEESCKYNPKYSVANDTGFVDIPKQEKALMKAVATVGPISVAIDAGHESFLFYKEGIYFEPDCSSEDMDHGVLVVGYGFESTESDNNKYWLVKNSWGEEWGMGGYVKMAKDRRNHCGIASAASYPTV
# Chain of UniProt Q8WXR4 (whole entry, looked up): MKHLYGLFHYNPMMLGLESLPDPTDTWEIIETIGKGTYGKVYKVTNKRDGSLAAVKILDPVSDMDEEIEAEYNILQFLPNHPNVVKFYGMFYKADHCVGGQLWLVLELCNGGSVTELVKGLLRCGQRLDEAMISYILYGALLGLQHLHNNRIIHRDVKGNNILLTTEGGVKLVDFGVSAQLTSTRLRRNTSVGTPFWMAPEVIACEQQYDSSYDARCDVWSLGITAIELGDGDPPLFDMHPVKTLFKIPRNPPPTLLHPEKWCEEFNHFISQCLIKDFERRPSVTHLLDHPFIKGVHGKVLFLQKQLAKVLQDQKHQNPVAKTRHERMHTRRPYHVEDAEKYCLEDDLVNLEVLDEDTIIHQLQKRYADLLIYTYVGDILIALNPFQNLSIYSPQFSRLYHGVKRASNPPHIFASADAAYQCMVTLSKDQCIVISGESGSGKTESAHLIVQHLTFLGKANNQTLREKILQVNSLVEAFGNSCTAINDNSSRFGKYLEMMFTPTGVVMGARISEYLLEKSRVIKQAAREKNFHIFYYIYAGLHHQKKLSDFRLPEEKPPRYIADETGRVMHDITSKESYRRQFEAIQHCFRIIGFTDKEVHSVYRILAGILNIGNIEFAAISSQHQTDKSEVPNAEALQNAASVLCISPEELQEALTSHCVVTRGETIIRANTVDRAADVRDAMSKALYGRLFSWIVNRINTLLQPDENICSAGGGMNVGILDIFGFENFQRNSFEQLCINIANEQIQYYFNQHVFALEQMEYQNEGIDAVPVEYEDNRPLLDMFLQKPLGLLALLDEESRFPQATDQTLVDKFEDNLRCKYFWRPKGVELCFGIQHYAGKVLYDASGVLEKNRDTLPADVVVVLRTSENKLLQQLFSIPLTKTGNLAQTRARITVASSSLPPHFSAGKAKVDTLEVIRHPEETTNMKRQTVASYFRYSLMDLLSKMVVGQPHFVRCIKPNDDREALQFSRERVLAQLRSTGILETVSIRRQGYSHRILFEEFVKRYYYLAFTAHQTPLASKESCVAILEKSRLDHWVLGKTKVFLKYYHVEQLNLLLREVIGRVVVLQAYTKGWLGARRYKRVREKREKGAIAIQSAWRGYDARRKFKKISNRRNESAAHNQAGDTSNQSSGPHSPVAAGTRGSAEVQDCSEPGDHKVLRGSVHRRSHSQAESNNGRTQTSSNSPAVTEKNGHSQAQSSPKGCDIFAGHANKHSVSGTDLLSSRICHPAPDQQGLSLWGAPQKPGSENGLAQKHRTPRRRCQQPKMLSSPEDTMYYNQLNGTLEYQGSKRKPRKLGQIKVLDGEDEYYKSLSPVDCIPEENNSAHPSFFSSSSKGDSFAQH
SMILES,target,assay,system,conditions,how to read,quantity,result
COc1cc(-c2[o+]c3cc(O)cc(O)c3cc2O[C@@H]2O[C@H](CO)[C@@H](O)[C@H](O)[C@H]2O)cc(OC)c1O,"Albumin (ALB, Bos taurus, UniProt P02769)",fluorescence quenching,,concentration not given,,binding enthalpy,2.22 kcal/mol
NC(=O)c1ccc[n+]([C@@H]2O[C@H](COP(=O)(O)O)[C@@H](O)[C@H]2O)c1,ALDH-137,substrate,,,,Km,6.7 ± 0.2 mM
CC(=O)NC[C@H]1[C@H](O)[C@H](O)[C@@H]2[C@H](O)C[C@@H](CO)N21,Spodoptera litura β-N-acetylglucosaminidase,,crude enzyme,"0.0125 µM, run 1, with: p-nitrophenyl GlcNAc",,inhibition,49.5%
Oc1ccc2ccc3cccc4ccc1c2c34,Aryl hydrocarbon receptor,"reporter gene, agonist, luciferase reporter",ZF-4,123.5 µM,relative to: vehicle control,fold change,1.64
CN(C(=O)n1cnc(-c2ccc[n+]([O-])c2)c1)C1CCCCC1,"androgen-induced gene 1 protein (Rattus norvegicus, UniProt F7EZV5)","enzyme activity, ABPP","rat, brain","oral, 100 mg/kg/day, 28 days",relative to: vehicle,fold change,-3.6
CC(c1ccc(Cl)c(Cl)c1)c1nn2c(-c3ccccc3F)nnc2s1 (stereo not shown),PFF0160c E182D,"enzyme activity, DCIP colorimetric",,,relative to: E182D mutant over wild type,IC50 ratio,2
CCC[N+]1(CC)CCN(c2ccc(C#N)cc2)CC1.[I-],"Neuronal acetylcholine receptor; alpha9/alpha10 (Homo sapiens, UniProt Q9GZZ6+Q9UGM1)","current, agonist, two-electrode voltage clamp",Xenopus oocytes coexpressing rapsyn,α9 coexpressed with α10,relative to: ACh,Imax relative to ACh,0.73 ± 0.07
NCCc1c[nH]c2ccc(O)cc12,AANAT Tragulus javanicus,"enzyme activity, colorimetric DTNB",,with: acetyl-CoA,,Km,0.23 ± 0.11 mM
CC[C@H](C)[C@H](NC(=O)[C@H](CCC(N)=O)NC(=O)[C@@H](NC(=O)[C@@H]1CCCN1C(=O)[C@@H](NC(=O)[C@H](CO)NC(=O)[C@H](Cc1ccccc1)NC(=O)[C@@H]1CCCN1C(=O)[C@H](CCC(N)=O)NC(=O)[C@@H](N)CCSC)[C@@H](C)CC)C(C)C)C(=O)N[C@H](C(=O)N[C@@H](CC(C)C)C(=O)N[C@@H](CCC(N)=O)C(=O)NCC(=O)N[C@@H](CO)C(=O)N[C@@H](CCCNC(=N)N)C(=O)N[C@@H](CCCNC(=N)N)C(=O)N[C@@H](CCCNC(=N)N)C(=O)N[C@@H](CCC(N)=O)C(=O)NCC(=O)N[C@@H](CCCNC(=N)N)C(N)=O)[C@@H](C)O,"Kcnma1 (Mus musculus, UniProt Q08460)","ion current, blocker, inside-out patch clamp",Xenopus oocytes,"+120 mV, with: 10 µM cytosolic Ca2+",,Hill coefficient,1.33
CC[C@H](CO)Nc1nc(NCc2ccc(-c3ccccn3)cc2)c2ncn(C(C)C)c2n1,"CSNK1A1L (Homo sapiens, UniProt Q8N752)",KINOMEscan competition binding,,"10 µM, primary screen",direction not given,binding score,2.7
c1ccc2c3c(ccc2c1)-c1cccc2cccc-3c12,Aryl hydrocarbon receptor,"reporter gene, agonist, luciferase reporter",ZF-4,10000 µM,relative to: vehicle control,fold change,16.8
C[N+](C)(C)[C@@H](Cc1c[nH]c(=S)[nH]1)C(=O)[O-],"Ergothioneine transport permease/ergothioneine binding protein EgtU, substrate-binding domain (egtU, Helicobacter pylori, UniProt B5Z7I3, S297F)",ITC,,"30 °C, substrate-binding domain",,ΔS,22.6 ± 2.3 cal/mol/K
O=C(Cn1nnc2ccccc21)Nc1ccccc1N1CCc2sccc2C1,"Procathepsin L (CTSL, Homo sapiens, UniProt P07711)",FRET,,,,Hill slope,1.6
CC[C@@H](C)[C@@H](NC(=O)[C@@H](Cc1ccc(O)cc1)NC(=O)[C@H]1CCCN1C(=O)[C@@H](CCCNC(=N)N)NC(=O)[C@H](N)Cc1c[nH]cn1)C(=O)N[C@H](C)C(=O)N[C@H](Cc1c[nH]cn1)C(=O)N[C@H](CCCNC(=N)N)C(=O)N[C@H](CCCCNC(=O)c1cccc(S(=O)(=O)F)c1)C(=O)N[C@H](Cc1ccc(O)cc1)C(=O)N[C@H](CO)C(=O)N[C@H](Cc1ccccc1)C(N)=O,"Transferrin receptor protein 1 (Tfrc, Mus musculus, UniProt Q62351)",flow cytometry,RAW264.7,"2 h, pH 6, replicate 3, unit not given",relative to: 0 h,surface TFRC expression,0.709
O[C@@H]1CCCC[C@H]1N1CCC(c2ccccc2)CC1 (racemic),"Vesicular acetylcholine transporter (Rattus norvegicus, UniProt Q62666)",,,,relative to: Ki σ2 (rat liver) over Ki VAChT,selectivity ratio,8.6
C[C@H]1CN(c2n[nH]c3nc(N[C@H]4CC[C@H](NS(=O)(=O)CCC(F)(F)F)CC4)ncc23)CCO1,"Isoleucine--tRNA ligase, cytoplasmic (Homo sapiens, UniProt P41252)","Kinobeads competition, measured: IARS",,"20 µM, unit not given",relative to: vehicle,remaining binding,1.13
O=C(Nc1cnccc1Cl)N1CCN(Cc2ccc3c(c2)OC(F)(F)O3)CC1,"PTGFR (Homo sapiens, UniProt P43088)","radioligand binding, inhibitor",,"10 µM, human, with: [3H]PGF2alpha",,inhibition,-14%
COc1ccc(N2C(=O)N(c3c(C)cccc3Cl)Cc3cnc(Nc4ccc(C5CCN(C)CC5)cc4OC)nc32)nc1,"CAMK2B (Homo sapiens, UniProt Q13554)",kinase activity,,0.5 µM,,inhibition,1%
Nc1c2ncn([C@@H]3O[C@@H]4COP(=O)(O)O[C@H]4[C@H]3O)c2nc[n+]1[O-],anti-cAMP antibody,"antibody binding, competitive cAMP EIA",,"concentration not given, acetylated samples","relative to: EC50 cAMP over EC50 cpd, higher = stronger binding",relative binding affinity,0.0055
COc1cc(N)c(Cl)cc1C(=O)NC1CN2CCC1CC2 (stereo not shown),"GPR143 (Homo sapiens, UniProt P51810)","β-arrestin recruitment, TANGO luminescence",,concentration not given,relative to: basal luminescence,log2 fold change,0.548
O=C(c1ccc(Cl)cc1)N1CCN2C(=O)N(OC(=O)N3CCOc4ccccc43)C(=O)C2C1 (stereo not shown),"SLC1A5 (Homo sapiens, UniProt Q15758)",MS-based ABPP,SW-620 conditioned medium,"10 µM, 1 h, 37 °C","relative to: compound over DMSO, lower = more inhibition",median protein ratio,1.14
Cc1cc(-c2ccccc2)nnc1NCCN1CCOCC1,ACHE,,biochemical,concentration not given,,activity class,inactive
CN1CCN(c2cc(-c3ccncc3)c(-c3ccc4ccccc4c3)nn2)CC1,"GALR1 (Homo sapiens, UniProt P47211)","antagonist, FLIPR",,10 µM,,inhibition,6.3%
COc1cc(Nc2ncc(F)c(Nc3ccc4c(n3)NC(=O)C(C)(C)O4)n2)cc(OC)c1OC,"Myosin-IIIb (MYO3B, Homo sapiens, UniProt Q8WXR4)",KINOMEscan,,10 µM,,inhibition,0%
C[C@@H](NC(=O)c1ccc(C#Cc2cccc(F)c2)cn1)C(C)(C)O,"Grm5 (Rattus norvegicus, UniProt P31424, A809V)","calcium mobilization, inhibitor",cells expressing MPEP-site mutant receptor,concentration not given,,agonist response,inhibited
CC(=O)c1c(Cc2cccc(C(F)(F)F)c2)c[nH]c1C,PFF0160c E182D,"enzyme activity, DCIP colorimetric",,,relative to: E182D mutant over wild type,IC50 ratio,0.2
CC(CCc1ccccc1)NC(C)C(O)c1ccc(O)cc1 (stereo not shown),ACHE,,biochemical,concentration not given,,activity class,inactive
Clc1cc2c(cc1Cl)Oc1cc(Cl)c(Cl)cc1O2,"Uncharacterized protein (Takifugu rubripes, UniProt Q4JHL3)","reporter gene, agonist, dual-luciferase",COS-7,24 h,,EC80,10.5 ± 9.23 nM

# Excerpt of the above:
SMILES,target,assay,system,conditions,how to read,quantity,result
O=C(Cn1nnc2ccccc21)Nc1ccccc1N1CCc2sccc2C1,"Procathepsin L (CTSL, Homo sapiens, UniProt P07711)",FRET,,,,Hill slope,1.6
CC[C@@H](C)[C@@H](NC(=O)[C@@H](Cc1ccc(O)cc1)NC(=O)[C@H]1CCCN1C(=O)[C@@H](CCCNC(=N)N)NC(=O)[C@H](N)Cc1c[nH]cn1)C(=O)N[C@H](C)C(=O)N[C@H](Cc1c[nH]cn1)C(=O)N[C@H](CCCNC(=N)N)C(=O)N[C@H](CCCCNC(=O)c1cccc(S(=O)(=O)F)c1)C(=O)N[C@H](Cc1ccc(O)cc1)C(=O)N[C@H](CO)C(=O)N[C@H](Cc1ccccc1)C(N)=O,"Transferrin receptor protein 1 (Tfrc, Mus musculus, UniProt Q62351)",flow cytometry,RAW264.7,"2 h, pH 6, replicate 3, unit not given",relative to: 0 h,surface TFRC expression,0.709
